Published values pooled from the literature.
Protocols differ between the studies behind these lines. “And” joins repeats or separate records; there may be more than shown. Numbers after ± are the reported error. Values after ≈ are worked out from the molar mass of the structure shown.

| SMILES | target or system | test | system | setting | how to read | measurement | result |
| --- | --- | --- | --- | --- | --- | --- | --- |
| CCCCCCCNC1=C(n2cncn2)C(=O)c2ccccc2C1=O | Serratia marcescens | – | MTCC 4301 | 10 µg/mL | – | zone of inhibition | 8 mm |
| COC(=O)[C@H](Cc1c[nH]c2ccccc12)NCc1cc2ccccc2nc1SC | Pseudomonas aeruginosa | – | – | 8 µg/mL, together with: pentamidine 100 µM | relative to: control | growth | 72.2% |
| O=C(Nc1ccc(CNc2ncnc3ccccc23)cc1)c1ccc(Cl)c(F)c1 | Plasmodium falciparum | LDH readout | 3D7 Hyp1-Nluc | 20 µM, 72 h | relative to: DMSO | parasite growth | 16.5% |
| CNC(=O)c1cc(Oc2ccc(NC(=O)Nc3cc(C(F)(C(F)(F)F)C(F)(F)F)ccc3F)cc2)ccn1 | Drosophila melanogaster | – | ptc>dRet M955T | in food, concentration not given, 25 °C | – | rescue of viability | > 80% |
| Nc1nc(-c2ccccc2)nc2[nH]nc(Nc3ccc(C(F)(F)F)cc3)c12 | coxsackievirus B3 | – | 31-1-93, NMRI mice, CVB3 chronic myocarditis | oral, 100 mg/kg twice daily, day 8, dosed days 3 to 10, score scale 0 to 7 | direction not given | clinical score | 1.1 |
| CCOCC(=O)N1CCO[C@H](C(=O)NCc2nc(-c3ccc(C)nc3)cs2)C1 | Plasmodium falciparum | SYBR Green growth | asexual blood-stage parasites, 3D7 | 72 h | – | EC50 | 100 ± 14 nM |
| N=C(N)c1ccc(OCc2ccc(Br)cc2COc2ccc(C(=N)N)cc2)cc1 | Escherichia coli | checkerboard | 552100 clinical isolate | unit not given, together with: rifampicin | lower = stronger synergy | FICI | ≤ 0.031 |
| CC(=O)NC[C@H]1CN(c2ccc(N3CCOCC3)c(F)c2)C(=O)O1 | Staphylococcus aureus | broth microdilution | methicillin-susceptible isolates | – | – | MBC | 8 µg/mL (≈ 23.7 µM) |
| COc1cc(OC)c(CCNC(=O)c2cn3cc(-c4cc(OCC(=O)O)ccc4OC)nc3s2)c(OC)c1 | Plasmodium falciparum | nanoluciferase readout | 3D7 Hyp1-Nluc | 20 µM, 72 h | relative to: DMSO | parasite growth | 3.42% |
| NCCS | – | binding, MIDAS equilibrium dialysis LC-MS | A2AR-BRIL thermostabilized | concentration not given | relative to: no-protein control | log2 fold change | -0.116 |
| C[C@@H]1[C@H](O)[C@@H](C)/C=C/C=C/C=C/C=C/C=C/C=C/C=C/[C@H](O[C@@H]2O[C@H](C)[C@@H](O)[C@H](N)[C@@H]2O)C[C@@H]2O[C@](O)(C[C@@H](O)C[C@@H](O)[C@H](O)CC[C@@H](O)C[C@@H](O)CC(=O)O[C@H]1C)C[C@H](O)[C@H]2C(=O)O | Leishmania major | eosin vital stain | promastigote | 500 µg/mL, 24 h | – | antileishmanial activity | 76.5% and 74.9% |
| CC(C)n1ncc2c(C(=O)NCC3(C)CNC3)cc(C3CC3)nc21 | coxsackievirus A16 | – | RD | 0.15 µM | – | cell protection | 6.25% and 3.19% |
| CC[C@H]1OC(=O)[C@H](C)[C@@H](O[C@H]2C[C@@](C)(OC)[C@@H](O)[C@H](C)O2)[C@H](C)[C@@H](O[C@@H]2O[C@H](C)C[C@H](N(C)C)[C@H]2O)[C@](C)(O)C[C@@H](C)C(=O)[C@H](C)[C@@H](O)[C@]1(C)O | Drosophila melanogaster | fluorescence | – | liquid food, 40 µg/mL, first instar larvae | relative to: solvent | fluorescein ingestion | 10.7% |
| Cc1cc(OC(C)C)ccc1C(=O)C(C)(C)NC(=O)c1sccc1C | Botrytis cinerea | conidial germination | B05.10 | 0.1 µg/mL | – | inhibition | 16.5 ± 6.7% |
| Nc1nc2c(ncn2[C@@H]2O[C@@H]3COP(=O)(O)O[C@H]3[C@H]2O)c(=O)[nH]1 | – | binding, MIDAS equilibrium dialysis LC-MS | A2AR-BRIL thermostabilized | concentration not given | relative to: no-protein control | log2 fold change | 0.173 |
| CNS(=O)(=O)c1ccccc1Nc1nc(Nc2cc(OC)c(OC)cc2C)ncc1Br | Plasmodium falciparum | nanoluciferase readout | 3D7 Hyp1-Nluc | 20 µM, 72 h | relative to: DMSO | parasite growth | 5.51% |
| O=C(NCCN1CCCC1)c1cc(-c2ccc(CN3CCOCC3)cc2)nc2ccc(F)cc12 | Plasmodium berghei | parasite growth, luciferase bioluminescence | HepG2 spheroids infected | 24 h | – | EC80 | 3.78 nM |
| O=C1c2ccccc2C(=O)c2c(O)c(O)cc(O)c21 | Drosophila melanogaster | fluorescence | – | liquid food, 40 µg/mL, first instar larvae | relative to: solvent | fluorescein ingestion | -41.4% |
| COc1ccc(OCCCO)cc1-c1cn2cc(-c3nnc(NCCCCc4ccccc4)o3)ccc2n1 | Plasmodium falciparum | nanoluciferase readout | 3D7 Hyp1-Nluc | 20 µM, 72 h | relative to: DMSO | parasite growth | 0.705% |
| CCN(CC)CCCC(C)Nc1ccnc2cc(Cl)ccc12 (stereo not drawn) | Drosophila melanogaster | fluorescence | – | liquid food, 40 µg/mL, first instar larvae | relative to: solvent | fluorescein ingestion | 15.5% |
| N#CC(=C1C=CC(=NOC(=O)c2ccccc2)C=C1)c1ccccc1 | Clavispora lusitaniae | broth dilution | ATCC 34449 | 48 h, 37 °C | – | MFC | 128 µg/mL (≈ 392 µM) |

Repeated from above:
| SMILES | target or system | test | system | setting | how to read | measurement | result |
| --- | --- | --- | --- | --- | --- | --- | --- |
| CNS(=O)(=O)c1ccccc1Nc1nc(Nc2cc(OC)c(OC)cc2C)ncc1Br | Plasmodium falciparum | nanoluciferase readout | 3D7 Hyp1-Nluc | 20 µM, 72 h | relative to: DMSO | parasite growth | 5.51% |
